Experimental data gathered from unrelated publications.
Protocols differ between the studies behind these lines. Several values in a cell are separate wells, animals, samples, runs or records. Numbers after ± are the reported error.

C[C@@H]1OC(=O)NN=C1c1ccc(-c2ccc(F)cc2)c(C(F)(F)F)c1  patients with adverse event (phase I trial, measured: Fatigue all grades; human patients; 5 mg loading then 0.25 mg daily): 0%
CC[C@H](C)CCCCC(=O)N[C@@H](CCN)C(=O)N[C@H](C(=O)N[C@@H](CCN)C(=O)N[C@H]1CCNC(=O)[C@H]([C@@H](C)O)NC(=O)[C@H](CCN)NC(=O)[C@H](CCN)NC(=O)[C@H](CC(C)C)NC(=O)[C@@H](Cc2ccccc2)NC(=O)[C@H](CCN)NC1=O)[C@@H](C)O  Cmax steady state (critically ill patients, AKI, plasma; intravenous, 150 mg/day, median): 7600 ng/mL
CCN(CCO)CCCC(C)Nc1ccnc2cc(Cl)ccc12 (stereo not drawn)  fatigue patients (newly diagnosed glioblastoma patients; oral, 400 mg/dose, grade 2, added: radiotherapy and temozolomide): 43%
Cc1cc(C)c(CNC(=O)c2cc(Cl)c3c(c2C)O[C@@](C)([C@H]2CC[C@H](N(C)C)CC2)O3)c(=O)[nH]1  incidence of mental status changes (relapsed/refractory NHL patients; dose not given, trial, safety set, all TEAEs grade 5): 0%
Cc1cc(C)nc(Nc2ncc(C(=O)NCCc3c(C)[nH]c4ccccc34)cn2)c1  maximal hepatic bioavailability (human liver microsomes; 1 µM): 51%
O=c1cc(-c2ccc(O)c(O)c2)oc2cc(O)cc(O)c12  urinary excreted amount, total (male Sprague-Dawley rat, lean; oral, 100 mg/kg of neohesperidin, 0 to 12 h, after β-glucuronidase/sulfatase hydrolysis): 249 ± 55.2 ng
O.O.O.O.O.O.[Cl-].[Cl-].[Co+2]  urinary cobalt creatinine-corrected (rat female, urine; oral, 10 mg/kg single, day 2): 0.0545 µg/µmol creatinine
OC(c1ccc(F)cc1)C(F)(F)CCN1CCC(O)(c2ccc(Cl)cc2)CC1 (racemic)  brain detection period (female CD-1 mice, brain; intraperitoneal, 10 mg/kg): 0.083 to 2 h
CN(C)C1(CNC(=O)c2ccc3c(c2)CCN3C(=O)c2ccccc2)CCOCC1  unbound plasma concentration (male C57BL/6 mice; intraperitoneal, 50 mg/kg, 120 min): 153 nM
C[C@]1(O)C[C@@](N)(c2ccc(-c3nc4n(c3-c3ccccc3)COc3ccncc3-4)cc2)C1  patients with Stomatitis TEAE (human, advanced or metastatic solid tumours; 16 mg once daily, phase I dose escalation): 0%
O=C(O)CCCOc1ccc(F)cc1-c1cc(-c2ccccc2C(F)(F)F)n(-c2ccccc2)n1  total protein (Crl:CD(SD) rat, male, serum; intravenous, 25 µg/kg, 14 days post-dose): 5.7 ± 0.28 g/dL
O=C(O)C(F)(F)C(F)(F)C(F)(F)C(F)(F)C(F)(F)C(F)(F)C(F)(F)F  Vd (human, plasma; oral, 50 mg): 0.08 L/kg
O=C(Nc1ccccc1)C1CCN(C(=O)Oc2cccnc2)CC1  change in internal perception score (psychotropic effects VAS; healthy women; 100 mg; baseline: pre-dose baseline, direction not given): 0
CC(=O)c1c(C)c2cnc(Nc3ccc(C4CCN(CCS(C)(=O)=O)CC4)cn3)nc2n(C2CCCC2)c1=O  AUC(0-t) (human, dose-escalation trial, plasma; oral, 75 mg twice daily, day 1, single dose): 1340 ng·h/mL
CCc1ccc(CC/C=C/c2ccc3c(c2)C(=O)CC3)cc1  Neutrophil percentage (Sprague-Dawley rat, female; oral, 450 mg/kg/day, 14 days): 23.4%
COc1cc2c(Oc3ccc4[nH]c(C)cc4c3F)ccnc2cc1OCC1(N)CC1  grade 1 or 2 Appendicitis (paediatric recurrent refractory sarcoma; 8 mg): 0%
CN1CC[C@@H](c2c(O)cc(O)c3c(=O)cc(-c4ccc(C(F)(F)F)cc4Cl)oc23)[C@@H]1CO  patients with adverse event (measured: Diarrhea; B-cell malignancies; oral, 100 mg, intermittent dosing): 33.3%
CC(C)CC(=O)OC[C@H]1O[C@@](C#N)(c2ccc3c(N)ncnn23)[C@H](O)[C@@H]1O  fraction unbound (human plasma; 0.9 µM): 0.193
Cn1cncc1-c1c(F)cncc1NC(=O)c1c(N)nn2cc(F)cnc12  grade ≥3 hyperkalaemia incidence (human patients; oral, 180 mg once daily): 0%
COc1ccc([C@@H](O)c2cc(-c3ncnc4cc(N5CCOCC5)ccc34)c(F)cc2Cl)nn1  hyponatraemia incidence (patients, advanced solid tumours; oral, 300 mg twice daily, treatment-emergent, added: avelumab; baseline: patients): 4%
CC1(C)CN(CCCCC(=O)N[C@H](Cc2ccc(O)c(I)c2)C(=O)N[C@H](Cc2ccccc2)C(=O)N[C@H](CCCCNC(=O)CCCCCCC(=O)NCCCC[C@H](NC(=O)N[C@@H](CCC(=O)O)C(=O)O)C(=O)O)C(=O)O)CC[N]2CC(C)(C)[S][Tc]2(=[O])[S]1 (stereo partly drawn) [technetium-99m labelled]  intact fraction (radio-HPLC; saline; 20 h, 25 °C): 17%
C[C@]1(CO)Cc2ncn(-c3ccc(C#N)c(Cl)c3)c2C(=O)O1  subjects with drug-related urine abnormality (human; 20 mg multiple doses, fasted): 0%
COc1ccc(C[C@@H]2NC(=O)[C@H]([C@@H](C)O)NC(=O)[C@@H]3[C@@H]4CCN3C(=O)[C@@H]3Cc5cn(c6ccc(F)cc56)CCCCCCN(Cc5ccc(cc5)CCNC(=O)[C@]5(C)CCCN5C2=O)C(=O)CCC(=O)N[C@@H](C)C(=O)N[C@H](CNC(=O)CCCCC[N+](C)(C)C)C(=O)N[C@@H](Cc2cccc(c2)CNC(=O)CO4)C(=O)N3)cc1  participants with adverse event (measured: vessel puncture site pain; human; dose not given): 3.9%
CC(C)(O)c1cc(Nc2cc(Oc3cn(C4CC4)nc3C3CCOCC3)ccn2)ccn1  treatment-emergent adverse events (Asthenia; advanced cancer patients, grade 4 glioma expansion; oral, 50 mg twice daily, all causality any grade): 0%
CN(C(=O)n1cnc(-c2ccc[n+]([O-])c2)c1)C1CCCCC1  concentration (Wistar rat, cerebellum; oral, 10 mg/kg/day, 4 h, repeated 5 days): 88 ± 36.8 ng/g
O[C@H]1CCCN[C@@H]1CCCn1cnc2c(Cl)c(Cl)ccc21  AUCtau geometric LS mean (healthy humans, plasma; oral, 150 mg, added: nintedanib 150 mg): 1140 ng·h/mL
COc1ccc(-c2c(-c3ccc(C#N)c(F)c3)nc(N3CCC(N)CC3)n(C)c2=O)cc1F  serious adverse event incidence (measured: Colitis; human patients; oral, 60 mg, dose expansion): 0%
Cc1ccc(F)c2cc(C(=O)N[C@@H]3CCC[C@H](N4CC[C@H](N(C)S(C)(=O)=O)C4)C3)[nH]c12  plasma concentration (CD1 mouse, plasma; intravenous, 1 mg/kg, 10 h): 3.15 ng/mL
CO[C@H]1C[C@@H]2CC[C@@H](C)[C@@](O)(O2)C(=O)C(=O)N2CCCC[C@H]2C(=O)O[C@H]([C@H](C)C[C@@H]2CC[C@@H](OC(=O)NCCOCCOCCOCCOCCOCCOCCOCCOCCC(=O)N3CCc4cc(Cn5nc(-c6ccc7oc(N)nc7c6)c6c(N)ncnc65)ccc4C3)[C@H](OC)C2)C[C@@H](O)[C@H](C)/C=C(\C)[C@@H](O)[C@@H](OC)C(=O)[C@H](C)C[C@H](C)/C=C/C=C/C=C/1C  abdominal pain TEAE incidence (dose-escalation trial; patients with advanced solid tumours; intravenous, 1.6 mg/3 mg weekly, any grade): 20%
CN1CCN(S(=O)(=O)c2cc([N+](=O)[O-])ccc2N(CCOS(C)(=O)=O)CCOS(C)(=O)=O)CC1  phosphate (naive NOD/SCID mice, pooled blood; intraperitoneal, 25 mg/kg, week 4): 2.1 mmol/L
COc1cccc(Oc2ccccc2NC(=O)CNC(=O)c2cccc3ccccc23)c1  serum globulin (esterase-deficient SCID mice, male; oral, 40 mg/kg/day, 14 days, toxicity study): 2.4 g/dL and 2.3 g/dL
COc1cccc2c1CCCC2CCCN1CCN(C2CCCCC2)CC1 (stereo not drawn)  half-life (CD-1 mouse, male, lung; intraperitoneal, 10 mg/kg): 3.63 h
CC1(C)[C@H](C(=O)OCc2cccc(Oc3ccccc3)c2)[C@@H]1C=C(Cl)Cl  enzyme contribution to clearance (measured: CYP3A5; human, age 5 years, recombinant human CYP3A5; 0.1 µM): 0.13%
CN(C)CCc1c[nH]c2ccc(N=Nc3ccccc3)cc12  cis isomer at photostationary state (light irradiation; solution; added: light 385 nm): 86%
Cn1ncc(-c2nc(N[C@H]3CC[C@H](N)CC3)ncc2Cl)c1CC1CC1  Cmax (HPLC-MS/MS; patients, plasma; oral, 42 mg, day 1): 99 ng/mL
CCCCCCC#Cc1cncc(-c2nnc(SCc3cc([N+](=O)[O-])cc([N+](=O)[O-])c3)n2C)c1  t1/2 (mouse plasma; plasma stability): > 8 h
CCN1CCN(Cc2ccc(Nc3ncc(F)c(-c4cc(F)c5nc6n(c5c4)[C@H](C)CCC6)n3)nc2)CC1  Hypercholesterolemia incidence, any grade (advanced solid tumour patients; Phase Ia monotherapy): 62.5%
Cc1ccc(OS(=O)(=O)O)cc1  serum protein binding (ultrafiltration; normal rat serum; 37 °C): 95 ± 3%
CC[C@H](C)[C@H](NC(=O)[C@H](Cc1ccccc1)NC(=O)[C@H](CCC(=O)O)NC(=O)[C@H](CCCCNC(=O)COCCOCCNC(=O)COCCOCCNC(=O)CC[C@H](NC(=O)CCCCCCCCCCCCCCCCC(=O)O)C(=O)O)NC(=O)[C@H](C)NC(=O)[C@H](C)NC(=O)[C@H](CCC(N)=O)NC(=O)CNC(=O)[C@H](CCC(=O)O)NC(=O)[C@H](CC(C)C)NC(=O)[C@H](Cc1ccc(O)cc1)NC(=O)[C@H](CO)NC(=O)[C@H](CO)NC(=O)[C@@H](NC(=O)[C@H](CC(=O)O)NC(=O)[C@H](CO)NC(=O)[C@@H](NC(=O)[C@H](Cc1ccccc1)NC(=O)[C@@H](NC(=O)CNC(=O)[C@H](CCC(=O)O)NC(=O)C(C)(C)NC(=O)[C@@H](N)Cc1cnc[nH]1)[C@@H](C)O)[C@@H](C)O)C(C)C)C(=O)N[C@@H](C)C(=O)N[C@@H](Cc1c[nH]c2ccccc12)C(=O)N[C@@H](CC(C)C)C(=O)N[C@H](C(=O)N[C@@H](CCCNC(=N)N)C(=O)NCC(=O)N[C@@H](CCCNC(=N)N)C(=O)NCC(=O)O)C(C)C  AUC(0-24h) at steady state (healthy men and women; oral, 14 mg once daily, with SNAC, geometric mean): 0.554 µM·h

For quick reference, copied from above:
O[C@H]1CCCN[C@@H]1CCCn1cnc2c(Cl)c(Cl)ccc21  AUCtau geometric LS mean (healthy humans, plasma; oral, 150 mg, added: nintedanib 150 mg): 1140 ng·h/mL
COc1ccc(-c2c(-c3ccc(C#N)c(F)c3)nc(N3CCC(N)CC3)n(C)c2=O)cc1F  serious adverse event incidence (measured: Colitis; human patients; oral, 60 mg, dose expansion): 0%
Cc1ccc(F)c2cc(C(=O)N[C@@H]3CCC[C@H](N4CC[C@H](N(C)S(C)(=O)=O)C4)C3)[nH]c12  plasma concentration (CD1 mouse, plasma; intravenous, 1 mg/kg, 10 h): 3.15 ng/mL
CO[C@H]1C[C@@H]2CC[C@@H](C)[C@@](O)(O2)C(=O)C(=O)N2CCCC[C@H]2C(=O)O[C@H]([C@H](C)C[C@@H]2CC[C@@H](OC(=O)NCCOCCOCCOCCOCCOCCOCCOCCOCCC(=O)N3CCc4cc(Cn5nc(-c6ccc7oc(N)nc7c6)c6c(N)ncnc65)ccc4C3)[C@H](OC)C2)C[C@@H](O)[C@H](C)/C=C(\C)[C@@H](O)[C@@H](OC)C(=O)[C@H](C)C[C@H](C)/C=C/C=C/C=C/1C  abdominal pain TEAE incidence (dose-escalation trial; patients with advanced solid tumours; intravenous, 1.6 mg/3 mg weekly, any grade): 20%
